Measured values collected from several papers.
Every numbered part comes from another study and shows a few of its results, in no order. Values joined by “and” are separate records of one study, mostly repeats; a detail may differ.
UniProt P10721, sequence (whole entry, unmodified, looked up): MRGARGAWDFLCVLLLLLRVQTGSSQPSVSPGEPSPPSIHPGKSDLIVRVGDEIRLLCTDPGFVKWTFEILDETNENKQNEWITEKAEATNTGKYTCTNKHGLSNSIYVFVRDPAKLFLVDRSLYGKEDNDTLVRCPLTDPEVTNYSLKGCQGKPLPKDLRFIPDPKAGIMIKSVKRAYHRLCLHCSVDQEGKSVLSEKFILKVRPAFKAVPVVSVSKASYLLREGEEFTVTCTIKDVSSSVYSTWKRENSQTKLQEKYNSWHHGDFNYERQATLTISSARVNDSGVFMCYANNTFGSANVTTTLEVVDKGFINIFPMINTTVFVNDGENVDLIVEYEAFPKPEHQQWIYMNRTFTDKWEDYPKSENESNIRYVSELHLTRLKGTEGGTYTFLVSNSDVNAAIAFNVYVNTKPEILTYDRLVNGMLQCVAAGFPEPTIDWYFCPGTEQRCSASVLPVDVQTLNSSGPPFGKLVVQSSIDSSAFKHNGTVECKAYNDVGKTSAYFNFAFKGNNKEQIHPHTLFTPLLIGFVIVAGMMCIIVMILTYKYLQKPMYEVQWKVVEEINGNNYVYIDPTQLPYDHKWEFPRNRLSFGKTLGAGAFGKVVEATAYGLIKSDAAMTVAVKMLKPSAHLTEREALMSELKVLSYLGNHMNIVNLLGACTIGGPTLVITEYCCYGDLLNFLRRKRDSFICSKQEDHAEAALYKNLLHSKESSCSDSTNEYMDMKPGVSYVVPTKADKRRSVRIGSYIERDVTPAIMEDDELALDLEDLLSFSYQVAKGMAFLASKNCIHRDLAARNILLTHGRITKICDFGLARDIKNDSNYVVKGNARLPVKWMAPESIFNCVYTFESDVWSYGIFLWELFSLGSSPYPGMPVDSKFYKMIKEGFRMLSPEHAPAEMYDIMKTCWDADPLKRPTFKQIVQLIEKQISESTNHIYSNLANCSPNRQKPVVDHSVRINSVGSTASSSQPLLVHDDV
UniProt P0C264, sequence (whole entry, looked up): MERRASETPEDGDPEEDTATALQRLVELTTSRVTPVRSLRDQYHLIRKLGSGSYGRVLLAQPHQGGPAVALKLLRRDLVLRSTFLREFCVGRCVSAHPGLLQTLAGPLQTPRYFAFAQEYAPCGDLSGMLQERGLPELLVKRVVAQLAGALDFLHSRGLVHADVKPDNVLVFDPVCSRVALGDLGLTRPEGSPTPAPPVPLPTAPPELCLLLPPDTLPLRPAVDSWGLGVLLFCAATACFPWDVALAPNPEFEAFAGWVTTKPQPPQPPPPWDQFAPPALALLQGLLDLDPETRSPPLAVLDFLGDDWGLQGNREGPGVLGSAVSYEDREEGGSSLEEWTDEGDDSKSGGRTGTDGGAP
UniProt O60331, sequence (whole entry, looked up): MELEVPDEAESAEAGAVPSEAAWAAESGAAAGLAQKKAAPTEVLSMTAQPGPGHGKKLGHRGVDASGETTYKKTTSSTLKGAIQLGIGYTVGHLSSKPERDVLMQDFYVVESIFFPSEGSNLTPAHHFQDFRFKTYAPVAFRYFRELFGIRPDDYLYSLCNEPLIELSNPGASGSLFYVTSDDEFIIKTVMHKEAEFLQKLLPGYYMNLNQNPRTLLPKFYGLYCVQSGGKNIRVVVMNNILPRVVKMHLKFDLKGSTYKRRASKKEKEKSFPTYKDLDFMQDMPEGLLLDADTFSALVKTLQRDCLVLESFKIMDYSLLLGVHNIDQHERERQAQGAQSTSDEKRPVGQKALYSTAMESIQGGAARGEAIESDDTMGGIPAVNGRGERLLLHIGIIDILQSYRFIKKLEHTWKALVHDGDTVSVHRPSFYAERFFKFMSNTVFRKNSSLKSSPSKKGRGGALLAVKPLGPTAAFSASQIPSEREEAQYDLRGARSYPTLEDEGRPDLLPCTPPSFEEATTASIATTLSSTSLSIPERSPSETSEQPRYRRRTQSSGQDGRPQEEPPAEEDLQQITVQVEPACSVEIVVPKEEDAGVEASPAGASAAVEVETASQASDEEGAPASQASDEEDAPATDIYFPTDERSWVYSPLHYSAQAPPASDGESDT
UniProt Q08345, sequence (whole entry, looked up): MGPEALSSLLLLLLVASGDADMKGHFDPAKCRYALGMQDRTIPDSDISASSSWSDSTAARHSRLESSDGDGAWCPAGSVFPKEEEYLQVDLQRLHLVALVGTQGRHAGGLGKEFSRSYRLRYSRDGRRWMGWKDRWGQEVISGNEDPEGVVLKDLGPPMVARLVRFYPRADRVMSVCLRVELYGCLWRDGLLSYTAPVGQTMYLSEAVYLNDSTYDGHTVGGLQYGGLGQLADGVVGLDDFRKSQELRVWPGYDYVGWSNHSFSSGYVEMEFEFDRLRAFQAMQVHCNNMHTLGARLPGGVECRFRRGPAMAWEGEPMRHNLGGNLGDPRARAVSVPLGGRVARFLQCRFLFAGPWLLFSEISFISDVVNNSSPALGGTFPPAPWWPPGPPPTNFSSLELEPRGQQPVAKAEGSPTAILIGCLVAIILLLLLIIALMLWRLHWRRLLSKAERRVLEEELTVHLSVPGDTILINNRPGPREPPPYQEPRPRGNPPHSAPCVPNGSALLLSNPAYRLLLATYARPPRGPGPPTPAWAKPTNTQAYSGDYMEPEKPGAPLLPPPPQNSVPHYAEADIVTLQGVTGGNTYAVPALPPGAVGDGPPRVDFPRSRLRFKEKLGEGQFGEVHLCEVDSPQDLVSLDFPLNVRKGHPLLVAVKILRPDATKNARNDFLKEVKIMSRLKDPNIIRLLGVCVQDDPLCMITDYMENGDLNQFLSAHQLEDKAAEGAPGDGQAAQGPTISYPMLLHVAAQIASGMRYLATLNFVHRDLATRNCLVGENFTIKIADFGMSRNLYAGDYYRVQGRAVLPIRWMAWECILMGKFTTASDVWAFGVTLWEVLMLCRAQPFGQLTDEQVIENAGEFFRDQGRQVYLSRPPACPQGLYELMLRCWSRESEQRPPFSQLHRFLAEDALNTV
UniProt Q9H3Y6, sequence (whole entry, looked up): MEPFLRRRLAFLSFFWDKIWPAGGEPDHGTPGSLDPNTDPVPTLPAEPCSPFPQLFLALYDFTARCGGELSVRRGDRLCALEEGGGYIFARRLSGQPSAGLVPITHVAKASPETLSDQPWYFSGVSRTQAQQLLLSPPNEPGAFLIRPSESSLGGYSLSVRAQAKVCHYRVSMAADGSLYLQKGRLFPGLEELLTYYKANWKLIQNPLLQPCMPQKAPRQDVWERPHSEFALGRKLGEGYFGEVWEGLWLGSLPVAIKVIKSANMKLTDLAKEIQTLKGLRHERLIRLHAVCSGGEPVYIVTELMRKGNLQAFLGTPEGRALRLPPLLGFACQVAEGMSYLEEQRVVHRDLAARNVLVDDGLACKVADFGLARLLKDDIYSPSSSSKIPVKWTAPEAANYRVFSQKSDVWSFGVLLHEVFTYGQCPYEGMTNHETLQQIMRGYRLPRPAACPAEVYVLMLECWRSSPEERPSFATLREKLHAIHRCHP
UniProt Q13043, sequence (whole entry, looked up): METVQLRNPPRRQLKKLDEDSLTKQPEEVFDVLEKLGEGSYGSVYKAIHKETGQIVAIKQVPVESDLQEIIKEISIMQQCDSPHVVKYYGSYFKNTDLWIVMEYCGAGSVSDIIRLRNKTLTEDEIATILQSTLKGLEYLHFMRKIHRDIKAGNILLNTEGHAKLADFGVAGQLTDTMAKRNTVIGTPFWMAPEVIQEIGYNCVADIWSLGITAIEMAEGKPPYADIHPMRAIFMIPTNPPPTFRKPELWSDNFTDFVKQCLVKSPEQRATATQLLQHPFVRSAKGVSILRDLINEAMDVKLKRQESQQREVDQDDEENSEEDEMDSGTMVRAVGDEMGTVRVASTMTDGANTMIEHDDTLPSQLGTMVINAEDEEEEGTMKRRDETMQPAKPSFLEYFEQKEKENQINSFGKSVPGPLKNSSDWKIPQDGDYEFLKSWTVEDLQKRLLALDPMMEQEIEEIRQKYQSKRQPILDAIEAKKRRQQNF

Sample 1
Cell line: A-375
Concentration: 100 µM
Time: 36 h
| SMILES | viability [%] |
| --- | --- |
| O=C(O)c1cc(/N=N/c2ccc(S(=O)(=O)Nc3ccccn3)cc2)ccc1O | 97.9 |
| CNC(=O)c1ccccc1Sc1ccc2c(/C=C/c3ccccn3)n[nH]c2c1 | 24.1 |
| CN1CCN(C2=Nc3ccccc3Oc3ccc(Cl)cc32)CC1 | -0.628 |
| CC[C@@]1(O)C(=O)OCc2c1cc1n(c2=O)Cc2cc3c(CN(C)C)c(O)ccc3nc2-1 | 23.2 |
| C#C[C@]1(O)CC[C@H]2[C@@H]3CCC4=CC(=O)CC[C@@H]4[C@H]3CC[C@@]21CC | 77.1 |

Sample 2
Structure (SMILES): Cc1c(NC(=O)c2cc(C(N)=O)nc3cc(F)ccc23)c(C(F)(F)F)nn1Cc1ccc(C#N)cc1
Method: competition with immobilised ligand
Concentration: 1 µM
| target | test | remaining binding [%] |
| --- | --- | --- |
| PIP5K1C (Homo sapiens, UniProt O60331) | binding | 94 |
| TNIK (Homo sapiens, UniProt Q9UKE5) | cell-free assay | 92 |
| RIPK1 (Homo sapiens, UniProt Q13546) | cell-free assay | 100 |
| SBK3 (Homo sapiens, UniProt P0C264) | cell-free assay | 100 |
| DDR1 (Homo sapiens, UniProt Q08345) | cell-free assay | 1.5 |
| DYRK1A (Homo sapiens, UniProt Q13627) | cell-free assay | 84 |
| CIT (Homo sapiens, UniProt O14578) | cell-free assay | 81 |
| STK4 (Homo sapiens, UniProt Q13043) | cell-free assay | 84 |
| CLK4 (Homo sapiens, UniProt Q9HAZ1) | cell-free assay | 87 |
| TNK1 (Homo sapiens, UniProt Q13470) | cell-free assay | 81 |
| KIT (Homo sapiens, UniProt P10721, T670I/V559D) | cell-free assay | 89 |
| SRMS (Homo sapiens, UniProt Q9H3Y6) | cell-free assay | 62 |
| KIT (Homo sapiens, UniProt P10721, A829P) | cell-free assay | 64 |

Sample 3
Target: CRBN/Zinc finger protein Helios (Homo sapiens, UniProt Q96SW2+Q9UKS7)
UniProt Q9UKS7, sequence (whole entry, looked up): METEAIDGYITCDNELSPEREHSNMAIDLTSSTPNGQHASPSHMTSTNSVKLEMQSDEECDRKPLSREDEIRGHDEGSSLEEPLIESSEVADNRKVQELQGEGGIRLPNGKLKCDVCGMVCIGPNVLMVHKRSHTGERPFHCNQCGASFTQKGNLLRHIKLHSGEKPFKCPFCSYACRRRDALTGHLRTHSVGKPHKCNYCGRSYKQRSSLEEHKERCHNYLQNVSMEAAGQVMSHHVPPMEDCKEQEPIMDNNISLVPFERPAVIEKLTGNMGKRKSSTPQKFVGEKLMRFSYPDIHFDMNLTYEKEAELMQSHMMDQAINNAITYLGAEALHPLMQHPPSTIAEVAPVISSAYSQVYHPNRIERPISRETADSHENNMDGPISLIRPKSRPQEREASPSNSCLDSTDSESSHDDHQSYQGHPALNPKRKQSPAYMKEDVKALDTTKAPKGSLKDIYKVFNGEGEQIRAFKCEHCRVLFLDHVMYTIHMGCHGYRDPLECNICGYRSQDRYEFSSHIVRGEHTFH
UniProt Q96SW2, sequence (whole entry, looked up): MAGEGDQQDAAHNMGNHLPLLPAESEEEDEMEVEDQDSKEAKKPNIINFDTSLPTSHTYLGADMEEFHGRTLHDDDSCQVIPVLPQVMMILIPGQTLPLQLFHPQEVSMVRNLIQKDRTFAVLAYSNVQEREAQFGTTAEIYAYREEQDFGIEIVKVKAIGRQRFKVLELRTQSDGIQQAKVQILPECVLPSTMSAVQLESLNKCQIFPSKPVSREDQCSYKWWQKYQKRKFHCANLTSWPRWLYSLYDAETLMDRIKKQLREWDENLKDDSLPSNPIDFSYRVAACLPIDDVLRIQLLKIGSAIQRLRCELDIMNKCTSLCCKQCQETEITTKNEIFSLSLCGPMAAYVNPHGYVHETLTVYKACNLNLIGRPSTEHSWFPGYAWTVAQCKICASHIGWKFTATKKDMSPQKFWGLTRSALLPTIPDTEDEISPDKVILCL
Action: degrader
Method: HiBiT
Cell line: HEK293
Concentration: 10000 nM
| SMILES | protein remaining [%] |
| --- | --- |
| O=C1CCC(N2Cc3c(ccc4c3OCC43CCC(Cc4ccccc4)CC3)C2=O)C(=O)N1 (stereo not drawn) | 85 |
| O=C1CCC(N2Cc3c(ccc4c3OCCC43CCN(Cc4ccccc4)CC3)C2=O)C(=O)N1 (stereo not drawn) | 56.1 |
| O=C1CCC(N2Cc3c(ccc4c3OCC43CCC(Oc4ccccc4)CC3)C2=O)C(=O)N1 (stereo not drawn) | 62.2 |

Sample 4
Cell line: mouse MPNST tumor cells
Method: high-content immunofluorescence imaging
Item: nuclear SOX9
Concentration: 10 µM
Time: 12 h
Notes: mean of 2 replicates
Relative to: DMSO control
Direction: higher = more nuclear SOX9
| Compound | nuclear SOX9 intensity |
| --- | --- |
| O=S(=O)(NC1CCCCC1)c1ccc2c(c1)C(=NO)c1cc(S(=O)(=O)NC3CCCCC3)ccc1-2 | 89.5 % of DMSO |
| C[C@](N)(Cc1ccc(O)cc1)C(=O)O | 93 % of DMSO |
| CC(=O)S[C@@H]1CC2=CC(=O)CC[C@]2(C)[C@H]2CC[C@@]3(C)[C@@H](CC[C@@]34CCC(=O)O4)[C@H]12 | 112 % of DMSO and 102 % of DMSO and 99.1 % of DMSO |

Sample 5
SMILES: COc1ccc(-c2c(Nc3ccccn3)[nH]c3c(C4=CCCCC4)c(-c4ccccc4)nn3c2=O)cc1
Species: human patients
Medium: plasma
| test | setting | geometric mean concentration [ng/mL] |
| --- | --- | --- |
| item: methionine | 100 mg once daily, 8 h | 81500 |
| item: S-adenosylmethionine | 200 mg once daily, 4 h | 13.4 |
| item: methionine | 400 mg once daily, 0 h | 73500 |

Repeated from above (sample 2):
| target | test | remaining binding [%] |
| --- | --- | --- |
| SBK3 (Homo sapiens, UniProt P0C264) | cell-free assay | 100 |
| DDR1 (Homo sapiens, UniProt Q08345) | cell-free assay | 1.5 |
| DYRK1A (Homo sapiens, UniProt Q13627) | cell-free assay | 84 |
| CIT (Homo sapiens, UniProt O14578) | cell-free assay | 81 |
